Results of several laboratories.
A part holds a random share of what one study measured.

Block 1
Target: Cln2 (Saccharomyces cerevisiae)
Effect on: peptide binding
Technique: competitive growth sequencing
Molecule type: peptide
Organism: Saccharomyces cerevisiae
Strain: unfused Cln2 strain
Notes: peptide tiling library
Reading: direction not given
Molecule | enrichment score
ATNSSHTDAHEILVSD | 0.309
DVSERGYVILPNDYFE | 0.693
LENIEPLQVSFAVLSS | 1.25
PHKTFRKLRLFDTPHT | -1.41
NEGVSNAVRRSLYIRD | -0.669
EHCRVLFLDHVMYTIH | -0.89
GPVKLEFDVSDGAT | 0.306
VLPGGVPSPGASLTSM | -0.35
KVRRNLFNQELLSP | -0.466
YLYLLLTQSLWCRV | -1.27
EPRNLLSLFEDTLDPT | 0.354
HPESPPRKRLKSKGSD | 3.81
ESSQLTVQAEFDMSAI | 0.535

Block 2
Target: Histone acetyltransferase KAT6A, both winged helices, GST fusion (KAT6A, Homo sapiens, UniProt Q92794, residues 1-181)
Technique: protein binding microarray
Molecule type: double-stranded DNA, one strand shown
Medium: in vitro
Concentration: not given
Notes: 8-mer, flanks averaged, mean of 2 arrays, mostly near background
Baseline: not given
Reading: higher = stronger binding
Construct (chain): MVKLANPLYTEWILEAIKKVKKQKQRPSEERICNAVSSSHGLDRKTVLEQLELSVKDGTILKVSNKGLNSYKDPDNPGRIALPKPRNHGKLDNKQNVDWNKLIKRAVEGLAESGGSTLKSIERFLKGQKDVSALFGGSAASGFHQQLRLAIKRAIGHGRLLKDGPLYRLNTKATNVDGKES
Oligonucleotide | E-score
AGCTTGCA | -0.161
CAGCACGC | 0.192
CTGTTTCA | -0.0549
CGGGGTAA | 0.147
CCTTTAAA | -0.0927
CCCCTAGG | -0.265
ACTCACGA | -0.128
AGATAAGA | -0.0787
CAGACTAC | -0.151
TGGCGACA | -0.109
TCCCCCGA | 0.00601
CCTAGAGG | -0.102
GCCCCCAA | -0.173
TAACAATA | -0.0192
CTAATACA | -0.0642
ATACAAGA | -0.0776
TAGCTTCA | -0.0785
CACTCGAA | -0.203
AGTCAATG | -0.267
GATGCGAA | 0.0558
AAATGACA | -0.193

Block 3
Target: RING finger protein unkempt homolog, zinc fingers 1-6, GST-SBP tag (UNK, Homo sapiens, UniProt Q9C0B0, residues 30-357)
Technique: RNA Bind-n-Seq
Molecule type: RNA
Medium: in vitro
Concentration: not given
Notes: RNA with constant flanks, human-mouse chimeric sites, ends assumed
Baseline: input RNA pool
Reading: higher = stronger binding
Constant ends, left off below: GGGAGUUCUACAGUCCGACGAUC … CAACAGAGGAUUGAGCAUCA
Residues (chain): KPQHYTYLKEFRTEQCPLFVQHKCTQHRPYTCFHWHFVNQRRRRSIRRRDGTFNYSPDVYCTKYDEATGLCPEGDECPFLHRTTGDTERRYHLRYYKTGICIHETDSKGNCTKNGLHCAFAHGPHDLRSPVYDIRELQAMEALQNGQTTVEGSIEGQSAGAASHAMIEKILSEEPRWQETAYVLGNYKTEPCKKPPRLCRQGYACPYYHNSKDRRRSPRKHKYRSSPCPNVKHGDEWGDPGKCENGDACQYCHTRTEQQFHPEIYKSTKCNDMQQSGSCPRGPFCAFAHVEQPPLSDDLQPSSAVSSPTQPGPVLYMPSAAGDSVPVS
Oligonucleotide | bound/input enrichment [ratio]
UCAAGGGGGCACUGCAGAGCCAUGCCUUUCCUUGACAUACAGAAAAAGCUGGGCAUCAGCCUGGACCGAUGGUUGACGUUCCUAAGCGCAGAACAGCCCUAUAAGAACGCCGCUCGGUGC | 0.087
AACAGAUUUCUCAAGCACAUUCCAAGCGAGAAUGCUGGGGUGAUCAUUGUUGCCCAUGUGCCUUCUGUAAUAGAUGGAAUGCUGUUCCAUGUUACAUCUUUCCUUCACUCCAGAAUUGUU | 0.123
AAAGAACUUGCUGAUGAUGAAGAUGAGGAAGACAAUGAUGAUGUUGAACCCAUUUCUGAAUUUAGAUUUGUGCCCAGUGAUAAGUCAGCAUUGGAGGCGAUGUUCACAGCAAUGUGUGAG | 1.13
CUGGCACUCUAUCAGAUAUAUUAAUUUUUUAAUGUAGAUGUAAUUUUAAAAAUGAAUGGCUACUUUACACGUUUAACUAGGGUUUUACUAUAUAUGUGUGUGUAUAUAUAUGUAUUUAUA | 9.53
UGACAAGGGCACUGCAGAGCCAUGCCUUUCCUUGACAUACAGAAAAAGUUCGGCCUUAGCCUGGACCGGCACUUUAUGUUCCUAAGCGCAGAACAGCCCUAUAAGAACGCCGCUCGGUGC | 0.0905
GGAUUCCGCUUCCGGUUCCGUUGGGCUCGGUUCUCUCCUGAGCUACGUGUCUCUACGCUCUCAAUCCGCCAUCCAACAAACAUGGAUCAGGUAAUGCAGUUUGUGGAGCCCAGCCGGCAG | 0.0536
CAGUCCCCGUGUCCCAGUGCAGGACGAUGUGAACAAAAACUCAAAGCGGACCCUCUAUUGUAGUUCUUUUUUUAAAUGUGCCAUUAUUAUUGUUUGUCUUUUUUUUUUUUUUUUUAAAGA | 11.6
CACAGAGGAGACCUCCUGUUCCUCACGAAUUUCCGGGAGGACCCCAUCAGAGCUGGUGAAAUAGUUGUUUUUAAGGUUGAAGGAAGAGACAUUCCGAUAGUUCACAGAGUAAUCAAAGUU | 4.84
GAUCAUGAACCACCAUCAGAAAUGAAGAUGAGAUUACCCAGACGAGCCAAAACAGCUAGCACUAGAAAAAGUAAACUUAACCUUGCAGAGUUCCUUAAAUGAAGAUCAAGUUAAGAGAGC | 3.26
GCAAAGGAUGAUGAGGCAGCUGCAGUUGCCCUUUCCUCUCUCGUUCAUGCUUUGGAUGAGUUAAACAUGGUGGCCAUCGUCCGAUAUGCUUAUGACAAAAGAUCUAAUCCUCAAGUUGGU | 0.143
AGAAUCUUGGGACUGUUUUACUUAAUUGGUCAUUGGUAUCUCAACAAACAUGGAGAUAAGAUUAGAAAUCUUGACAUCAACAGGUAUUAAGCAGAAAAAACCAUGGCCACGUGUCUCCUG | 0.117

Block 4
Target: Centromere-binding protein 1, full length, N-terminal tag (CBF1, Saccharomyces cerevisiae, UniProt P17106, residues 1-351)
UniProt P17106, sequence (whole entry, looked up): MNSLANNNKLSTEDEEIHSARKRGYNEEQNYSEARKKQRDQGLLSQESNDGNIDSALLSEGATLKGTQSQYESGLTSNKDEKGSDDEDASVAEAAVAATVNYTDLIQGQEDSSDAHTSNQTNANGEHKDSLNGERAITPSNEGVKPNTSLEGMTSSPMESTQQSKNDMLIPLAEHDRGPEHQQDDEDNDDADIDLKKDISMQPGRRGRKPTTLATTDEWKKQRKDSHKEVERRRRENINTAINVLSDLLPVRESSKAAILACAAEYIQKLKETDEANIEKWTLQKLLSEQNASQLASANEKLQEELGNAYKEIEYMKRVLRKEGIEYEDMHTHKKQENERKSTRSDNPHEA
Technique: protein-binding microarray
Molecule type: double-stranded DNA, one strand shown
Medium: in vitro
Concentration: 0.8 µM
Notes: whole 60-bp probe, no competitor
Reading: higher = stronger binding
Constant ends, left off below: … GTCTTGATTCGCTTGACGCTGCTG
Oligonucleotide | fluorescence intensity [a.u.]
GAACATGGCAAATATATGATCACGTGCGATTGTTAG | 20100
CTACCGATAATGAATCATCACGATGAATGACTATTC | 581
CTACTATGTCTTGCTCACCTGCAATAGCCCGCGTTC | 539
GAAGTAGGGCCATCTCGCGTGCCAGAACAGACATAG | 530
CTAGAATGCGATGGAGGTGATGCTAGTGTGGACTTC | 540
CTACAAACTACAGCGCACGTGACCGATAACTATTTC | 24500
GAAGAAATGAGAAATCTCAGCTGAGTTATTTAATAG | 497
GAAGATTGGCTGAGTCACCTTCATCGCGTCCACTAG | 526
CTACTATGGGTGGCGAACGTGGTGGGCGTTACCTTC | 509
GAACAAAAATAGTGCCACGTCGGTACGGTCGGGTAG | 578
CTAGAAGACCCACATCAGGCGGCAGAAATGGTTTTC | 508
CCTAACTACTATAATCAACTCACATAGCTTCGTACA | 509
GAACCACGAGCACATGGGGTGAGTTATATAACATAG | 837
CTAAAATAACTAAGTCACGATATTTGTTTTATGTTC | 1360
CTACTTTGCTTTCTTGCTGATGTTGATCCCCGTTTC | 702
GAAAAATGAAAAGATCATGAGAAAAAAACAAAATAG | 571
TGTACGAAGCTATTTCATGTGGGTATAGTAGTTAGG | 530
GAAATTTTTGTCCATATCGTGATAATTTTTTTGTAG | 644
CCTAACTACTATAGACACGAAATATAGCTTCGTACA | 523
CTAAGTGCTCATTGGCATGTGACAAGAATTGCGTTC | 3740
CTACTCAAAAAGGGTCACCCGATCGGTGAATCATTC | 650
GAATACACTATTCACCAGACCCGCTCCTTCTCCTAG | 520
GAACTTGAATGATATTTCACATGGTGGATGCCATAG | 580
CCTAACTACTATAGCACCGTGGAATAGCTTCGTACA | 512

Block 5
Target: RNA binding protein fox-1 homolog 2, RRM domain, GST-SBP tag (RBFOX2, Homo sapiens, UniProt O43251-10, residues 100-194)
Technique: RNA Bind-n-Seq
Molecule type: RNA
Medium: in vitro
Concentration: 365 nM
Notes: natural RNA segment, single round, ends assumed
Baseline: no-protein control
Reading: higher = stronger binding
Constant ends, left off below: GGGAGUUCUACAGUCCGACGAUC … UGGAAUUCUCGGGUGCCAA
Residues (chain): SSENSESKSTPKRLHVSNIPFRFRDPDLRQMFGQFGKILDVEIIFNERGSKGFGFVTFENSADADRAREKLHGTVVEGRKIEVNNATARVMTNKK
Oligonucleotide | RBNS enrichment (R)
CUUUGGAAAAGUACCGUAUGUUCCUAGACCCCUUCCUUCCUUCCUUCCUUCCUUCCUUCUUUCCUUCCUUCCUUCCUUCCUUCCUUCCUUCCUUCCUUCCUUCCCUCUCC | 1.92
CACAACACUCAUCUGUCAAACACCAAGCACUCUCAGCCUCCCCGCCUUCAGCUGUCAGCUUUCUGGGGCUAACUUCUCUGCCUUUGUGGUUGGAGGCCUGAGGCCUCUUG | 0.421
UGUCUCUGUUGUGAGCUUGCUCUUUGUUUUAAAAGGUGCCAGGGGUACAUUUUUGCACUGAAACCUAAAGAUGUUUUAAAAACACUUUUCACAGAAAUAGUCCUUGUCAU | 1.1
UGUCACUUAGGGGCGGUCCCCACACUGAGUGAGAAAGGGGCAUCUGCCCUGUUGCUACUGUGAGGACCCUCCCUGGGGUUAGAAAGAAAGCAUCCAGGGUCACUCAUCUC | 0.269
GCCUGGGGUCCCUCUGAAGAGACCUUGGCUGCUCACUGUCCACAUGUGAACUUUUUCUAGGUGGCAGGACAAAUUGCGCCCAUUUAGAGGAUGUGGCUGUAACCUGCUGG | 0.39
CGGAGCAGUUGGCCUGUGCUUGGAGGCCUCAGAUAGACCUGUGACCUGGUCUGGUCAGGCAAUGCCCUGCGGCUCUGGAAAGCAACUUCAUCCCAGCUGCUGAGGCGAAA | 1.03
AAGCAUGUCCAACUUCUGUCCAGAUGACAUUAAAACCAAAGCCUAAUUGUUAAGCCUCUUAUUCUAAAGUCCAUAGCAAUGCUAUGGAAUAUCAAGUAUAAUGAUGUAGU | 1.51
UGAAAAAGUACCCUCUUUUUCAUUUCCUAUUGCAGUGGUCACAGCUAAUAGUGUCUGAACAUGGUUCAAGAAUAAGAGAUUCCAUGUAGCAUUUUCUUUAUUAUUUUCAU | 1.18
CACCACAGAUUAUGUUGACGUAUUUUCUUCUGUAUUUUCUUGGUGGGACUUGAGAUUUGAGGAAAAAAGAUGCUUAUUUGGAAUUUCUAUUAAGAACUAUCCUUGUUAUU | 0.438
UAUAUUGAUUAGAAAAACGUCAAUUGUCUAUUCAAAAAAUUCUAUCUCUGUGAUAGAUUAUAUUUAUCCUAAUCUGUUGAUACCUCUGUUAAUUUGUUUUAAGAGAAUUA | 0.903
UCAUGGAAGAAAAUGGAAUCUACAGAAUUAUUUUCAAAAAUAAAGUAAAGGCUGAAUUGCUGAAAAAUAAGUGUGUGUGUGUGUCCUAGGGAAGGAGGCGAAGGGGUGGG | 0.771
CCUCAGUGGCCAGGCGCAAGGCUACAGGUGCAGUCACCUGUUCCCGGCCACCUUCCCUCCCAUCUUUGGCAGACAGAAGUCUCAGCUCUCACUAGAGGGAAGACCUGGGC | 0.253

Excerpt of the above (block 4):
Oligonucleotide | fluorescence intensity [a.u.]
CTACCGATAATGAATCATCACGATGAATGACTATTC | 581
CTACTATGTCTTGCTCACCTGCAATAGCCCGCGTTC | 539
GAAGTAGGGCCATCTCGCGTGCCAGAACAGACATAG | 530
CTAGAATGCGATGGAGGTGATGCTAGTGTGGACTTC | 540
CTACAAACTACAGCGCACGTGACCGATAACTATTTC | 24500
GAAGAAATGAGAAATCTCAGCTGAGTTATTTAATAG | 497
GAAGATTGGCTGAGTCACCTTCATCGCGTCCACTAG | 526
